Published values of several laboratories.
Lines come from different studies, so protocols differ. “And” joins repeats or separate records; there may be more than shown. ± gives the spread as reported. In brackets after ≈: the same amount, converted by molar mass.

COc1ccccc1-c1n[nH]c2nc(N[C@H]3CC[C@H](NS(=O)(=O)CC(C)C)CC3)ncc12
relative abundance (bead binding, competition bead pull-down, item: LMJF.29.1270; Leishmania donovani extract; 10 µM; baseline: vehicle): 1.03

O=C(O)c1ccc(-c2nc(-c3ccccc3Cl)c3sccn23)cc1
bone marrow cellularity (histology; mouse; dose not given, day 11, together with: 5-fluorouracil): 95% and 90%

CCCSC(SCCC)c1ccc(OCCNS(=O)(=O)c2ccc(Cl)cc2)c(OC)c1
EC50 (Tobacco mosaic virus; protective activity; plant in vivo): 211 ± 4.2 µg/mL (≈ 418 µM)

COc1ccccc1-c1n[nH]c2nc(NC3CCN(C(=O)Cc4ccc(F)cc4F)CC3)ncc12
relative abundance (bead binding, competition bead pull-down, item: LINJ.29.2420; Leishmania donovani axenic amastigote extract; 10 µM; baseline: vehicle): 0.97

Cc1cc(Oc2nc(N3CC[C@@H](c4ccncc4)C3)ncc2F)[nH]n1
IC50 (SK-MEL-5; cell proliferation; skin cancer): 64.6 µM

CC(C)CC(C(=O)N1CC2(CC1C#N)C(=O)Nc1ccccc12)N(C)C(=O)c1cc2c(F)cc(F)c(F)c2[nH]1 (centres unmarked)
inhibition (Human coronavirus 229E; cytopathic effect; MRC5; 49.75 nM): 94.9%

CC1(C)CC(=O)C2=C(C1)Oc1ccccc1C2C1C(=O)NC(=O)NC1=O (centres unmarked)
lipid content (3T3-L1 preadipocytes; adipogenesis, Oil Red O staining; IC20, 14 days, single replicate): 0.799 OD492

CC(=O)NCSC[C@H](NC(=O)[C@@H]1CCCN1C(=O)[C@H](C)NC(=O)[C@@H](NC(=O)CNC(=O)[C@@H](NC(=O)[C@H](Cc1c[nH]c2ccccc12)NC(=O)[C@H](C)NC(=O)CNC(=O)[C@H](CO)NC(=O)[C@H](C)NC(=O)[C@@H]1CCCN1C(=O)[C@H](Cc1c[nH]c2ccccc12)NC(=O)[C@H](C)NC(=O)[C@H](C)NC(=O)[C@@H](N)Cc1ccc(O)cc1)[C@@H](C)O)[C@@H](C)O)C(=O)N[C@@H](CO)C(=O)N[C@@H](C)C(=O)NCC(=O)N[C@H](C(=O)NCCOCCOCCOCCOCCOCCOCCOCCOCCOCCOCCOCCOCCC(=O)N[C@@H](CS)C(N)=O)[C@@H](C)O
selectivity ratio (HCC95; phage binding; baseline: targeting over control phage): 1.2 ± 0.66

COc1cc(C(SC(C)C)SC(C)C)ccc1OCCNS(=O)(=O)c1ccc(F)cc1
EC50 (Tobacco mosaic virus; curative activity; plant in vivo): 479.3 ± 1.3 µg/mL (≈ 983 µM)

CC[N+](C)(CC)Cc1cc(Nc2ccnc3cc(Cl)ccc23)ccc1O.[Cl-]
inhibition (Dengue virus type 2; viral replication, Rluc reporter replicon; BHK-21 DENV2 replicon cells; 50 µM, 24 h): 69.9 ± 3.4%

CCCCCCCCCCCC(=O)C(C)C(=O)N1CCC[C@H]1C(=O)NC(C)(C)C(=O)NC(C)(C)C(=O)NC(C)(C)C(=O)N[C@](C)(CC)C(=O)NCCC(=O)N[C@@H](C)C(=O)N[C@](C)(CC)C(=O)N[C@@H](C)C(=O)N[C@@H](CC(C)C)C(=O)N[C@](C)(CC)C(=O)NCCC(=O)N[C@@H](C)C(=O)N[C@](C)(CC)C(=O)NCCC(=O)N[C@@H](C)C(=O)NC(C)(C)C(=O)NC(C)(C)C(=O)NC(C)(C)C(=O)N[C@@H](C)C(=O)N[C@@H](CC(=O)O)C(=O)O (some centres unmarked)
unbound compound (MS peak area) (β-1,3-glucan; pull-down, LC-MS; 1 h, pH 7.0, 30 °C, together with: β-glucan 1 mg/mL; higher = less bound): 856 a.u.

CC1CCC2C(C)C(CCCOC(=O)C(Cc3ccc(N(CCCl)CCCl)cc3)NC(=O)OC(C)(C)C)OC3OC4(C)CCC1C32OO4 (centres unmarked)
IC50 (OVCAR-3; cell growth or viability, CCK-8): 1.6 µM

O=C1NC2(CC2)COc2ncc(F)cc2[C@H]2COCCN2c2ccn3ncc1c3n2
organ-to-body weight ratio (Sprague-Dawley rat, male, brain; oral, 20 mg/kg/day, 4 weeks dosing, end of recovery): 0.458 ± 0.04%

Cc1cc(C(=O)Nc2nc3cccc(C)c3n2[C@H]2CCCCN(C(=O)/C=C/CN(C)C)C2)ccn1
survival (Trypanosoma brucei brucei; 2T1 CLK1 overexpressing; 1.25 µM, DMSO pretreated; baseline: maximum): 67.9% and 56.9% and 56.5% and 46.2%

NCCO.O=C(O)C(Cl)Cl
herbicidal inhibition (Eleusine indica; 15 mg/mL, 21 days, post-emergence, greenhouse): 0%

CC(C)(C)C(=O)OCOP(=O)(OCOC(=O)C(C)(C)C)C1CCCN(O)C1=O (centres unmarked)
CC50 (K562): > 100 µM

CC(C)[C@@H]1NC(=O)[C@@H]2CCCN2C(=O)[C@@H](C(C)C)NC(=O)[C@H]2CCCN2C(=O)[C@H](C(C)C)NC(=O)[C@@H]2CCCN2C(=O)[C@@H](C(C)C)NC(=O)[C@H]2CCCN2C(=O)[C@H](C(C)C)NC(=O)[C@@H]2CCCN2C(=O)[C@@H](C(C)C)NC(=O)[C@H]2CCCN2C1=O
bi-ionic potential (sheep lipid bilayer; 10 µM, pH 7.4, 23 °C, together with: 0.1 M K+ vs NH4 chloride): -39 mV

CN(C(=O)c1ccn2ncc(-c3ccc(C(N)=O)cc3)c2c1)c1ccc(C#N)cn1
faecal Nluc luminescence (Cryptosporidium parvum; UGA1 Nluc, IFN-gamma knockout C57BL/6 mice, faeces; oral, 10 mg/kg daily, 432 h post infection, treatment days 11-17; higher means more parasites): 47 a.u. and 308 a.u. and 7250 a.u. and 129 a.u.

C[Si](C)(C)C[C@H](CN)CC(=O)O
inhibition (sodium channel site 2, rat; binding; 250 µM): -6%

Cc1ccc(S(=O)(=O)NCCOc2ccc(C(SC(C)C)SC(C)C)cc2Cl)cc1
EC50 (Tobacco mosaic virus; protective activity; plant in vivo): 320 ± 3.2 µg/mL (≈ 656 µM)

Repeated from above:
CC(=O)NCSC[C@H](NC(=O)[C@@H]1CCCN1C(=O)[C@H](C)NC(=O)[C@@H](NC(=O)CNC(=O)[C@@H](NC(=O)[C@H](Cc1c[nH]c2ccccc12)NC(=O)[C@H](C)NC(=O)CNC(=O)[C@H](CO)NC(=O)[C@H](C)NC(=O)[C@@H]1CCCN1C(=O)[C@H](Cc1c[nH]c2ccccc12)NC(=O)[C@H](C)NC(=O)[C@H](C)NC(=O)[C@@H](N)Cc1ccc(O)cc1)[C@@H](C)O)[C@@H](C)O)C(=O)N[C@@H](CO)C(=O)N[C@@H](C)C(=O)NCC(=O)N[C@H](C(=O)NCCOCCOCCOCCOCCOCCOCCOCCOCCOCCOCCOCCOCCC(=O)N[C@@H](CS)C(N)=O)[C@@H](C)O
selectivity ratio (HCC95; phage binding; baseline: targeting over control phage): 1.2 ± 0.66

COc1cc(C(SC(C)C)SC(C)C)ccc1OCCNS(=O)(=O)c1ccc(F)cc1
EC50 (Tobacco mosaic virus; curative activity; plant in vivo): 479.3 ± 1.3 µg/mL (≈ 983 µM)

CC[N+](C)(CC)Cc1cc(Nc2ccnc3cc(Cl)ccc23)ccc1O.[Cl-]
inhibition (Dengue virus type 2; viral replication, Rluc reporter replicon; BHK-21 DENV2 replicon cells; 50 µM, 24 h): 69.9 ± 3.4%
